Measured values of several laboratories.
Parts stem from different laboratories: compare values within a part only. Positions count from the first letter of the parent shown.
Chain of UniProt Q712K3 (whole entry, looked up): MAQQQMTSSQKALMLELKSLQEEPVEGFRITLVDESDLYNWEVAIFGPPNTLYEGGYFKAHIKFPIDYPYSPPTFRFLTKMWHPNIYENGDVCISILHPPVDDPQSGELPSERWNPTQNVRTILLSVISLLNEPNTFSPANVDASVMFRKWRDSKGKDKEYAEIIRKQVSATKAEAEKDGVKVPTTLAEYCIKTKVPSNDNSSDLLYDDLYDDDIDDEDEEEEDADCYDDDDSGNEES
Chain of UniProt Q969T4 (whole entry, looked up): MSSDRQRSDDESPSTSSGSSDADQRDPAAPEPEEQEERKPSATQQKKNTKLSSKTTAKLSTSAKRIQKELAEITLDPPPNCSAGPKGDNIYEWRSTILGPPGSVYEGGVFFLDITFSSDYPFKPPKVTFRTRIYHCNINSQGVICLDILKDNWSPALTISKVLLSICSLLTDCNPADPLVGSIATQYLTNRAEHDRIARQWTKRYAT
Chain of UniProt Q9C0C9 (whole entry, looked up): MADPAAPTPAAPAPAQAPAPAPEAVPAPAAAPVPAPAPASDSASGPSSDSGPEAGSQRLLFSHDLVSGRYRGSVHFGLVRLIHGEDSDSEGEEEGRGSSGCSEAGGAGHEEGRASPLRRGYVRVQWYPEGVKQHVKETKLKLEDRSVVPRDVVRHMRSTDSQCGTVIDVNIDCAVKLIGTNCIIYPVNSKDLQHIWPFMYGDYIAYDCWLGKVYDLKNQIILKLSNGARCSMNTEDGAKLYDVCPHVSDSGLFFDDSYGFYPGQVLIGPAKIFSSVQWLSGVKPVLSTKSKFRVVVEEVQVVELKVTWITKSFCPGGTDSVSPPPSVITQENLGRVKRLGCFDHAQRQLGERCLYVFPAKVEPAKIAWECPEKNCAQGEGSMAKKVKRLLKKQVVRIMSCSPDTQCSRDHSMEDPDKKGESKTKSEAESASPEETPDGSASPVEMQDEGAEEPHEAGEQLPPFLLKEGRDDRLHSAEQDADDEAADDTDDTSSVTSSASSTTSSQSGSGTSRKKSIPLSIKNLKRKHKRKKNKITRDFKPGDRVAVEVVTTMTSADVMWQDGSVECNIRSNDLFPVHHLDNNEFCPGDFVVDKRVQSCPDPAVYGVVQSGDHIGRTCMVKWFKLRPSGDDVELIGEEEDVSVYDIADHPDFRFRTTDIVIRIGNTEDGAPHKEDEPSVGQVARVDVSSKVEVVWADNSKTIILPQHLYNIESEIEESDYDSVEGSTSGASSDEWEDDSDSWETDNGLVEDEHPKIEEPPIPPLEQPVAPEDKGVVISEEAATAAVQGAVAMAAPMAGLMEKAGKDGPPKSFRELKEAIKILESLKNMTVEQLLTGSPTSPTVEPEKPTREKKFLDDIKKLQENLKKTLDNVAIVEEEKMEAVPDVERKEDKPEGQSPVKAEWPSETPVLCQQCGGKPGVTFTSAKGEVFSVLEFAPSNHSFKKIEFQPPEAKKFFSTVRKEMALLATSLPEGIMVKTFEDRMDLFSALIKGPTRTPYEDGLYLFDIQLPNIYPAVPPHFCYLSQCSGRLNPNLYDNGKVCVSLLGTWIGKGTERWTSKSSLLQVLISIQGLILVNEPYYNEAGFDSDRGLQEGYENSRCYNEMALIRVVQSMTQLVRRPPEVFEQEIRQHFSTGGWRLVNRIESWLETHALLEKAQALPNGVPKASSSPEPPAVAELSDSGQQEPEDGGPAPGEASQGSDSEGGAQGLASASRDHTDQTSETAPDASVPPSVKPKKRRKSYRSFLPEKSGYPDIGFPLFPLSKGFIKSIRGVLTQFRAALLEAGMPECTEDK
Chain of UniProt P51668 (whole entry, looked up): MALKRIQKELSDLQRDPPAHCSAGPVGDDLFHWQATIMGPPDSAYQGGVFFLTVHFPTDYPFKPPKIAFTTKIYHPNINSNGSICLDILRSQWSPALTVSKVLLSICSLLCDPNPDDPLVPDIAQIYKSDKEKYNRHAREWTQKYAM
Chain of UniProt Q9Y385 (whole entry, looked up): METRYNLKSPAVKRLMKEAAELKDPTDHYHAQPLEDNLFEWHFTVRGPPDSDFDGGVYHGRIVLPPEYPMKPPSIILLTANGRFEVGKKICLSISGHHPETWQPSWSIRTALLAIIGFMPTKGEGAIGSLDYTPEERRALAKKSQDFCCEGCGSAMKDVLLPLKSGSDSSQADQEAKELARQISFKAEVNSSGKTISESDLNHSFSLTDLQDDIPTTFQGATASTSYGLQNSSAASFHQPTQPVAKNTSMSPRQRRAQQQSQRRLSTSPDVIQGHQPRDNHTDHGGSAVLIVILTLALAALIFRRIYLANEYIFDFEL
Chain of UniProt P68036 (whole entry, looked up): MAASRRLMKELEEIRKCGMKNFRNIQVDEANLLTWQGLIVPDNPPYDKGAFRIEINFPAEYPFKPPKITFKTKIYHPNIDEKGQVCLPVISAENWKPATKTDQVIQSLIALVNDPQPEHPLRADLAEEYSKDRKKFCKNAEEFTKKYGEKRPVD
Chain of UniProt P61081 (whole entry, looked up): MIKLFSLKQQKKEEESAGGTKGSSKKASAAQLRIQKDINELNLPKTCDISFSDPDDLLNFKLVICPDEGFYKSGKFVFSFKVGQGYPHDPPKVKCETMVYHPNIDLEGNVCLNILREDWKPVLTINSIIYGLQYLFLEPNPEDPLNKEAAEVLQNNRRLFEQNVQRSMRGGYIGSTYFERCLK

Study 1 — Sequence: EHCRVLFLDHVMYTIH; method: competitive growth deep sequencing; form: peptide; concentration: concentration not given; setting: peptide tiling library; direction: direction not given; quantity: growth enrichment score
yeast with cyclin D1-Cln2 chimera; cell growth, binder: 0.0529
Saccharomyces cerevisiae; binding; cyclin E1-Cln2 fusion strain: 0.261
yeast with cyclin F-Cln2 chimera; cell growth, binder: 1.61
yeast with cyclin E2-Cln2 chimera; cell growth, binder: -0.498
yeast with cyclin D2-Cln2 chimera; cell growth, binder: 0.039
Saccharomyces cerevisiae; binding; cyclin D3-Cln2 fusion strain: 0.274
yeast with cyclin B3-Cln2 chimera; cell growth, binder: -0.896
Saccharomyces cerevisiae; binding; cyclin D2-Cln2 fusion strain: -0.851

Study 2 — method: universal PBM; form: double-stranded DNA, one strand shown; sample: in vitro; concentration: not given; direction: higher = stronger binding; quantity: E-score
Target: Sal-like protein 4, full length isoform B (SALL4, Homo sapiens, UniProt Q9UJQ4-2, residues 1-616)
Setting: 8-mer, flanks averaged, mean of replicates
Target sequence (chain): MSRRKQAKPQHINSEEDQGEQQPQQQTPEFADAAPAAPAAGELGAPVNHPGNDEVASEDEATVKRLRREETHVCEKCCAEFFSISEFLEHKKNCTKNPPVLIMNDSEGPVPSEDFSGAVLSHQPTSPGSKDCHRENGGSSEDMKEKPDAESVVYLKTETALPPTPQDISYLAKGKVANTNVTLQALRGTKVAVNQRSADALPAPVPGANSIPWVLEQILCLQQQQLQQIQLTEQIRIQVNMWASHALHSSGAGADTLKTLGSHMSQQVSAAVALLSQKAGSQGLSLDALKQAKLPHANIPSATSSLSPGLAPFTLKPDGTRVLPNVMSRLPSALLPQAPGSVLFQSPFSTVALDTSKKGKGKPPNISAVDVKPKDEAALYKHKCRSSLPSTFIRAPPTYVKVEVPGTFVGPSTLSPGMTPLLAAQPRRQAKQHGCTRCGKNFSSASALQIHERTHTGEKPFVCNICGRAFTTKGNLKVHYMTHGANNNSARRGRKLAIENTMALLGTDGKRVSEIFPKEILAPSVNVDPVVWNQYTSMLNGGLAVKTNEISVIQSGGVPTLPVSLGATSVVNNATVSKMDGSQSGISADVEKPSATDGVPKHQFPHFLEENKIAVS
AGAATGAC: 0.092
GCAAGTCA: -0.0613
CGAGGAAA: 0.0747
GGCTCTAC: -0.205
CTTATGCC: 0.0476
AGCCGGTG: -0.333
ACAAGAGT: 0.103
CGCCACAG: -0.228
ATTATGGG: 0.297
CTGTCGTA: 0.0149
AAAAACCA: 0.271
CATTACTA: 0.312
AAGACGGG: -0.28
ATATTTGA: 0.38
ATAGTTGG: 0.0927
GTGAGAAC: -0.108
GATCGAAA: 0.0879
GTAAAAGA: 0.0626
AGCCTCTC: -0.112

Study 3 — method: protein-binding microarray; form: double-stranded DNA, one strand shown; sample: in vitro; concentration: 0.8 µM; setting: whole 60-bp probe, no competitor; direction: higher = stronger binding; quantity: fluorescence intensity; constant ends, left off below: … GTCTTGATTCGCTTGACGCTGCTG
Target: Centromere-binding protein 1, full length, N-terminal tag (CBF1, Saccharomyces cerevisiae, UniProt P17106, residues 1-351)
Chain of UniProt P17106 (whole entry, looked up): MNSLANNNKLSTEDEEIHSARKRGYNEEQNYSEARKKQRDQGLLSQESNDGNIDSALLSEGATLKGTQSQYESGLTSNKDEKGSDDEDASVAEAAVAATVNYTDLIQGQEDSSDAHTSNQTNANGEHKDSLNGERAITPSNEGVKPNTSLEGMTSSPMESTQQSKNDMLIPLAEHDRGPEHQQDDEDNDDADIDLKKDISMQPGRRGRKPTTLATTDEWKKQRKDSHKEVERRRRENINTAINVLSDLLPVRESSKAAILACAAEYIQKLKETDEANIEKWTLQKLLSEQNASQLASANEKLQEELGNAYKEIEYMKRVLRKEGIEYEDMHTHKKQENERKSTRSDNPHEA
GAACATAACTTGCGTCACCATTTAACACCGTATTAG: 555 a.u.
CTATTATATCCCTTTCATATGATTAACAAAACTTTC: 596 a.u.
CTATTGCCTAAACGTCATCACAGGAGAGGGTAATTC: 556 a.u.
CTAAAGTAGTTGGATCAGCTGAAGTAGTTTGAATTC: 551 a.u.
CTAATAGTACTTGTACATCAGACAAGGATGAATTTC: 505 a.u.
CTATGGTATATGCTGCACGTGTAGTCTAATGTTTTC: 8180 a.u.
CTAAACCGCAGACATGATGTCCTCTTCTTTCAATTC: 509 a.u.
CTAAAGAAACGAATCCACCTGATTGCAGCTGTATTC: 620 a.u.
CTAAAGCCACCCTAGTTCATCAGGTTGAAGAAGTTC: 509 a.u.
GAAGGAAGGGCTTTTGAGCAGGTGAATAGAAGGTAG: 614 a.u.
CTAACTAACTAGTGCATCACCACTTGTCTAAATTTC: 522 a.u.
GAAAAAATTAGGGGACGCGTGGGGAGGGCCGGCTAG: 488 a.u.
CTATGGGTAATGCACGTGTTGATAATTACATCGTTC: 8980 a.u.
CTAAATCTTGCCTTCATCACCATTATTGAATTATTC: 563 a.u.
CTAAATTGTTTTTATCAGGTGTTTCCCTATTTATTC: 805 a.u.
GAACTCAGTAGAATACACGTCACAGAAAGCTAGTAG: 841 a.u.

Study 4 — Sequence: B1 (RNF130 RING domain); method: yeast two-hybrid; sample: yeast; setting: mostly zero background; reference: not given; direction: higher = stronger interaction; quantity: lacZ reporter activity
B1: RNF130 RING domain (UniProt Q86XS8); chain DKETDPDFDHCAVCIESYKQNDVVRILPCKHVFHKSCVDPWLSEHCTCPMCKLNILKALGIV
BIRC6 UBC core domain (UniProt Q9NR09): 0
UBE2R2 UBC core domain (UniProt Q712K3): 0
UBE2I UBC core domain (UniProt P63279): 0
UBE2M UBC core domain (UniProt P61081): 0
UBE2E3 UBC core domain (UniProt Q969T4): 4020
UBE2D1 UBC core domain (UniProt P51668): 13500
UBE2O UBC core domain (UniProt Q9C0C9): 0
UBE2J1 UBC core domain (UniProt Q9Y385): 0
UBE2L3 UBC core domain (UniProt P68036): 0

Study 5 — method: DHFR PCA, deep sequencing; sample: yeast; with: (+)-ABA 200 µM; reference: wild-type fitted maximum; direction: higher = stronger binding; quantity: relative binding score
Target: ABI1, truncated, D143A, DHFR fusion (Arabidopsis thaliana)
Setting: methotrexate growth selection, single substitutions
Parent: PYL1, truncated, DHFR fusion (Arabidopsis thaliana); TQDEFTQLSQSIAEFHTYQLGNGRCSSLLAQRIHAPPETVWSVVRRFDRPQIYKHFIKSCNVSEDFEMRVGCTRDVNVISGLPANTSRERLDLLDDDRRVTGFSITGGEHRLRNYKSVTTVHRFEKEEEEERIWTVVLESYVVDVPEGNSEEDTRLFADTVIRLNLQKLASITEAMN
L112A: -14%
R74N: 7.13%
Q19I: 96.9%
H16T: -7.14%
Q51E: 94.6%
V143Q: 58.2%
R113E: 98.2%
F157H: 5.47%
R111D: 36.6%
V100Y: 56.1%
V78Y: 57%
I57P: 6.25%
Y18E: 81.8%
E128C: 108%
R123C: 97.2%
E89N: 2.09%

Study 6 — method: RNA Bind-n-Seq; form: RNA; sample: in vitro; concentration: not given; reference: input RNA pool; direction: higher = stronger binding; quantity: bound/input enrichment
Target: RING finger protein unkempt homolog, zinc fingers 1-6, GST-SBP tag (UNK, Homo sapiens, UniProt Q9C0B0, residues 30-357)
Setting: RNA with constant flanks, human-mouse chimeric sites, ends assumed
Constant ends, left off below: GGGAGUUCUACAGUCCGACGAUC … CAACAGAGGAUUGAGCAUCA
Residues (chain): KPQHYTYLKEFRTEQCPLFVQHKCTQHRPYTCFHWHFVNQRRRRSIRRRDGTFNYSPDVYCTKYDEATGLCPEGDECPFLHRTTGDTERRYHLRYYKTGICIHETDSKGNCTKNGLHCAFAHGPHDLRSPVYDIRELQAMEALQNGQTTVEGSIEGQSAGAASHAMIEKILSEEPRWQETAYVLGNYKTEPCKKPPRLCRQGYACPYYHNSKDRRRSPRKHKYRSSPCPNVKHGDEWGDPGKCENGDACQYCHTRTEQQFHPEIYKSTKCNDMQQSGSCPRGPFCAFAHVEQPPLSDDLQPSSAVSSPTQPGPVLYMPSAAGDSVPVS
GGCCUGGGACCGUCCUGGGCUAGUACAAAUAGCGGCAUGGAGGCUCAGAGAGGAAAGUUUGUUAGUGGAGGCAGUGGUAGAGGCCGUCAUGUACGGUCCUUUACUCGAUAGAUGUGUUCU: 0.738 ratio
GUGUCCUGCUUUCAACUUAAAUCACUGAGGCAUCUCUACUGUUCUGUGAGCAUCAGGAUUUUAGUGCUGUGUCACCACAUGAGAGUUCAGAAGCAGCCUUUCUGUGGAGAGUGAGAAUGA: 0.178 ratio
GUAGCUGGGACUACAGAAAUGCUGGUAGUGCUCCGGCGUGAGUCGUGACUUCUGAUGUCCCAGCAAAUGUUGGCAUUGUUGACUGCUGAGAAGAUACUUCUGAGGACCCACGUCUAAGGU: 0.0833 ratio
CAGUCCCCGUGUCCCAGUGCAGGACGAGAACAUGGACAACUCAAAGCGGACCCUCUAUUGUAGUUCUUGAUUCUCGAAAUGUGCUAUUGUUUUUAAACUUUUUUUUUUUUUUUUUAAAGA: 0.455 ratio
GUGUCCUGCUUUCAACUUAAAUCACUGAGGCAUCUCUACUGUUCUGUUAAAAUCAGGAUUUUAGUGCUGUGUCACCACAUGAGAGUUCAGAAGCAGCCUUUCUGUGGAGGGUGGGAAUGA: 0.158 ratio
AACAGAUUUCUCAAGCACAUUCCAAGCGAGAAUGCUGGGGUGAUCAUUGUUGCCCAUGUGCCUUCUGACUGAGCUUUAAUGCUGUUCCAUGUUACAUCUUUCCUUCAUUGCAUAUUUGUU: 0.184 ratio
GUUCGGCUCUGGGAUCAUGCCACAAUGACAGAAGUGAAAUCUCUAAAUUUUAAUAUGUCUGUUAGCAGUAUGGAAUAUAUUCCUGAAGGAGAGAUUUUGGUUAUUACUUAUGGACGAUCU: 0.862 ratio
CUUAAUGUUAAUAUUUUUGAAUAAAUGAAGCUAAAAUGUCUGCUUUUGGUACUACAUGCAUUAGCGAAAGGUUAAGUUUUGUUUUCCACUGAAGUACUAUUUAACAUCUCAGAAAAAAAC: 0.464 ratio
GAAUCCUACUCAGGCGGAUUUUGCAACACCAAGCUCACAGCAGCAGCAUCUUAGUCACAGUUAGGUAGUUUUGGGGCAAUAUUGCCAGGGUUUUAUUCACAUGCAGGUUUGGAAAAUGUA: 11.6 ratio
AGAAAGCAAAACUUGGAACGAUUUAAGAAAGGAGACGUAAGAUUCUUGAUUUGCACAGAUGUAGCUGCUAGAGGGAUUGAUAUCCAUGGUGUUCCUUAUGUGAUCAAUGUCACUCUGCCU: 0.214 ratio
UAAGUUAUUUUGUACAGCUUUGUAAAUUCUUAACAUUAAUUUGUAAACAUGUUUAUUUUGUUUGGGUAAUUUGGUUCAUUAAGUACAAAACCAAAUAAAUGAACAUCUUUUUCAGUAAUU: 0.24 ratio

Some of these lines once more (study 2):
GGCTCTAC: -0.205
ATATTTGA: 0.38
AAAAACCA: 0.271
ATTATGGG: 0.297
AGAATGAC: 0.092
CGCCACAG: -0.228
